Measurements from different studies.
A part holds a random share of what one study measured. Changes are numbered by the printed parent chain.

Sample 1 — target: CCNB2, cyclin fold, Cln2 fusion (human); method: yeast growth competition, sequencing; sample: yeast; setting: strong parent motif; baseline: not given; direction: higher = stronger binding
Starting sequence: E2F1 docking peptide (human); PPVKRRLDFETDH; partner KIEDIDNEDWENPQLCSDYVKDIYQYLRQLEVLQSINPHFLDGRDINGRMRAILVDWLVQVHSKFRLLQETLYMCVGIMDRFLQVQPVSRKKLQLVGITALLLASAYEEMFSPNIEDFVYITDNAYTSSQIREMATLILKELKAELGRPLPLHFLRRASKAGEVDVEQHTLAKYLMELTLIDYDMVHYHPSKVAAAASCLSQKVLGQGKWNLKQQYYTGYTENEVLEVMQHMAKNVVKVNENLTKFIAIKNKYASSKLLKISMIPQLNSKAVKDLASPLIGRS
| Substitution | normalised enrichment score |
| --- | --- |
| D12P | 3.38 |
| V3D | -0.139 |
| F9M | 1.01 |
| P2R | 3.15 |
| V3Y | 0.773 |
| T11K | 3.27 |
| R6T | 2.48 |
| D8L | 2.73 |
| E10I | 1.98 |
| L7M | 0.675 |
| D12W | 3.05 |
| L7E | -0.133 |
| D8Y | 2.97 |
| R6E | 1.75 |
| D12E | 4.29 |
| K4A | 3.17 |
| R6L | 1.43 |
| L7N | 0.301 |
| R6K | 4.13 |
| D12F | 3.25 |
| P2K | 3.18 |
| L7D | -0.171 |
| D12C | 3.54 |
| R6H | 2.21 |
| P2Q | 3.05 |

Sample 2 — method: RNA Bind-n-Seq; molecule type: RNA; sample: in vitro; concentration: 365 nM; baseline: no-protein control; direction: higher = stronger binding
Target: RNA binding protein fox-1 homolog 2, RRM domain, GST-SBP tag (RBFOX2, Homo sapiens, UniProt O43251-10, residues 100-194)
Setting: natural RNA segment, single round, ends assumed
Shared flanks, not repeated: GGGAGUUCUACAGUCCGACGAUC … UGGAAUUCUCGGGUGCCAA
Target sequence (chain): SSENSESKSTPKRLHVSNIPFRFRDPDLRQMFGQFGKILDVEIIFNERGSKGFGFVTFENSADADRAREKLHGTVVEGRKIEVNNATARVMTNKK
| Oligonucleotide | RBNS enrichment (R) |
| --- | --- |
| CUAACAAAGUCUCCGAAACUAGUAGGACUACUACCACAUCUUUAUCCCCUGAGCUGAUCCGCUUCACAGCUUCCUCCUCGUCUGGGAUGGUGCCCAAAUUGCCAGCUGGC | 0.177 |
| GGACUUUCACACCAUAAGGAGAUUUCUGUUUUUCUUUUUGGCUGUUAAUGCUUGUCUAUAACAUUGGAGCCAUCACAAGAAUGUUCAUUUGGAAUGAAGGCUGCAGGCAC | 0.561 |
| CCCGCACAAAGCGGCUCUAAACCUCAGGCCACAUCUUUUCCAAGGCAAACCCUGUUCAGGCUGGCUCGUAGGCCUGCCGCUUUGAUGGAGGAGGUAUUGUAAGCUUUCCA | 0.22 |
| CUGGGGAAAGUGCAUUUGGCCAAAUGAAAUGGUAGUCAAGCCUAUUGCAACAAAGUUAGGAAGUUUGUUGUUUGUUUAUUAUAAACAAAAAGCAUGUGAAAGUGCACUUA | 1.42 |
| UCUCUGGUCUACCUGAGAUCUAUAUGGAGCUUAAAGGAGGGUGAAUAAGAUUAAUGACCUGAAUUGAAAGAGAAUUUGGAGCCAGGAUGGGUCUCCAUUCUGUGUGGCAC | 0.437 |
| CAAAAACUAUAGAGCCUGUCAGCACCAAAGCUGACAGAAGUUAUACCUUACUCCUUUCCUUUCCCCUGAACAAACCUGCUAAUCCCACUAAUUCAGGAAUUUGAGUAGAG | 0.48 |
| GAUGCUGUGUUUUGUAUGUUAGUUACACAACUUUGUGUCCUGCCAGGUCAUGUUCUAAAAUUAAGGCUGAGAAAGGUGUGAGGUCGAAGAUCUCAGGCAGCGCUGUUUCC | 0.702 |
| AUAGGCCAACUGGAGCACUGGUACCCCCACCCUGGUGCGUGUUCACCCACGGGGUCACUUGAGGAAUCUGCCCCACUGCUUCUUGUGAGCAGAUCAGGACCCUUAGGAAA | 0.312 |

Sample 3 — target: MAFF, bZIP domain (human); method: DHFR protein complementation; sample: yeast; baseline: wild-type JUN-FOS pair; direction: higher = stronger binding
Setting: single substitutions, most at no-binding floor
Starting sequence: JUN, bZIP domain (human); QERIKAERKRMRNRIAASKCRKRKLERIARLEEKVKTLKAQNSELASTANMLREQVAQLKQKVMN; partner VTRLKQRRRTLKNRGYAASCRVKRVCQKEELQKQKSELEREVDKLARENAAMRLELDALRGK
| Substitution | binding fitness [natural log] |
| --- | --- |
| L45N | -1.54 |
| N42T | -1.45 |
| Q41N | -1.55 |
| M51H | -1.11 |
| E54H | -1.41 |
| Q41H | -1.41 |
| T48C | -1.37 |
| K39R | -1.35 |
| E54I | -1.52 |
| A57T | -1.34 |
| L38D | -1.49 |
| A57G | -1.36 |
| I28W | -1.49 |
| Q55E | -1.44 |
| T37F | -1.63 |
| A40C | -1.31 |
| V35G | -1.46 |
| L52S | -1.34 |
| L38S | -1.44 |
| T48V | -1.44 |
| S47H | -1.43 |
| A46V | -1.47 |

Sample 4 — method: protein-binding microarray; molecule type: double-stranded DNA, one strand shown; sample: in vitro; concentration: 2200 nM top; setting: 60-bp whole probe; together with: salmon DNA 0.4 mg/ml; baseline: random background probes; direction: higher = stronger binding; shared flanks, not repeated: GCCTAGCAC … GTCTTGATTCGCTTGACGCTGCTG
Target: Interferon regulatory factor 7, full length, phosphomimetic (IRF7, Homo sapiens, UniProt Q92985, residues 1-503, S471D/S472D/S475D/S476D/S477D/S483D/S484D/S487D)
Residues (chain): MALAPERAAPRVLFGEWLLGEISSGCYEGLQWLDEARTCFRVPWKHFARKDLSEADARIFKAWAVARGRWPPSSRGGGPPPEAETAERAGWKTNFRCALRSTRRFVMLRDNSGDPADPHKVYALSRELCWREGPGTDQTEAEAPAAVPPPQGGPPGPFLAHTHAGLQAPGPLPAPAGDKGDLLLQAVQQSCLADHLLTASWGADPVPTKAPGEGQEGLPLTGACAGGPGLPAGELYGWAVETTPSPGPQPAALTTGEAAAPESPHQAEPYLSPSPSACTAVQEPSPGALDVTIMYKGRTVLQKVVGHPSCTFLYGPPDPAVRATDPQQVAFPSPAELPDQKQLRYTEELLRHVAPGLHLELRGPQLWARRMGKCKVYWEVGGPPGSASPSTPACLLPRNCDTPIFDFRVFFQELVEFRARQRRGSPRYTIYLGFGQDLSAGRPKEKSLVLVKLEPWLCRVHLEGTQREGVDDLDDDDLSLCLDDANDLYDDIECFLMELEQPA
| Oligonucleotide | fitted relative affinity |
| --- | --- |
| GACGGTCTCCTCTTCCTGACGTGCTAG | 0.962 z-score |
| TCAAATGACCTTCTCAGACTGTGCTAG | -0.0786 z-score |
| TCACCTTTCAATCCTAGACTGTGCTAG | 1.79 z-score |
| TTGTTTTTTTCTATATGCAAGTGCTAG | 2.61 z-score |
| GACGTTTCCGGTTTCGGGACGTGCTAG | 6.72 z-score |
| TTAGAACTGGGGACTGGATTAGTGCTA | -0.52 z-score |
| GACGATTTCGGGTTTCAAGACGTGCTA | 4.43 z-score |
| TTAGGACGGGACTTTCGGTTAGTGCTA | 5.13 z-score |
| GACGAACTGGGTCTCGGGACGTGCTAG | -0.114 z-score |
| TTAGAACTGGGGGATCGATTAGTGCTA | 0.493 z-score |
| TCAGAAATTTCTTTCTAACTGTGCTAG | 0.349 z-score |
| TCAGGAAACCGGAAAGGCACTGTGCTA | -0.961 z-score |
| TCATTTCTATATTTGCTACTGTGCTAG | 2.24 z-score |
| GTCTTTGCAAAAGCTCCACCGTGCTAG | 0.713 z-score |
| GACCGTATCCTACTGCTGACGTGCTAG | 1.12 z-score |
| CACGGTTTCCTTCTCCTGACGTGCTAG | 3.15 z-score |
